Measured values from different studies.
Lines come from different studies, so protocols differ. “And” joins repeats or separate records; there may be more than shown. ± gives the spread as reported.
B1: FIBH residues 1259-1853 (Bombyx mori); N-terminal Alexa Fluor 488; chain GAGAGSGAGAGSGAGAGSGAGAGSGAGYGAGVGAGYGAGYGAGAGAGYGAGAGSGAGSGAGAGSGAGAGSGAGAGSGAGAGSGAGAGSGAGAGSGAGAGSGAGAGSGAGAGYGAGYGAGAGAGYGAGAGSGAGSGAGAGSGAGAGSGAGAGSGAGAGSGAGAGSGAGAGSGAGAGSGAGAGYGAGVGAGYGAGYGAGAGAGYGAGAGSGAGSGAGAGSGAGAGSGAGAGSGAGVGSGAGAGSGAGAGSGAGAGSGAGAGYGAGYGAGAGAGYGAGAGSGAGSGAGAGSGAGAGSGAGAGSGAGAGSGAGAGSGAGAGSGAGAGSGAGVGYGAGVGAGYGAGYGAGAGAGYGAGAGSGAAS
B2: NRP1 (Arabidopsis thaliana); chain MVADKSKKSKIEEKGEEENLEQIDAELVLSIEKLQEIQDDLEKINEKASDEVLEVEQKYNVIRKPVYDKRNEVIQSIPGFWMTAFLSHPALGDLLTEEDQKIFKYLNSLEVEDAKDVKSGYSITFHFTSNPFFEDAKLTKTFTFLEEGTTKITATPIKWKEGKGLPNGVNHDDKKGNKRALPEESFFTWFTDAQHKEDAGDEIHDEVADIIKEDLWSNPLTYFNNDADEEDFDGDDDGDEEGEEDDDDEEEEDGEE
B3: RPRD1B 2-135 (Homo sapiens, UniProt Q9NQG5); chain SSFSESALEKKLSELSNSQQSVQTLSLWLIHHRKHAGPIVSVWHRELRKAKSNRKLTFLYLANDVIQNSKRKGPEFTREFESVLVDAFSHVAREADEGCKKPLERLLNIWQERSVYGGEFIQQLKLSMEDSKSP
B4: VHH nanobody 6B1 (Lama glama); chain QVQLQESGGGLVQPGGSLRLSCAASGSIFSTDAMGWYRQFPGKNRKLVARISSGDYGDYTNYADSVKGRFTISRDNAKNTVYLQMNSLKPEDTAVYYCNSVPPAPGEYGRDYWGAGTQVTVSS
B5: YWHAH (Homo sapiens, UniProt Q04917); sequence looked up; chain MGDREQLLQRARLAEQAERYDDMASAMKAVTELNEPLSNEDRNLLSVAYKNVVGARRSSWRVISSIEQKTMADGNEKKLEKVKAYREKIEKELETVCNDVLSLLDKFLIKNCNDFQYESKVFYLKMKGDYYRYLAEVASGEKKNSVVEASEAAYKEAFEISKEQMQPTHPIRLGLALNFSVFYYEIQNAPEQACLLAKQAFDDAIAELDTLNEDSYKDSTLIMQLLRDNLTLWTSDQQDEEAGEGN
B6: Pigr 19-135 (Mus musculus, UniProt O70570); chain KSPIFGPQEVSSIEGDSVSITCYYPDTSVNRHTRKYWCRQGASGMCTTLISSNGYLSKEYSGRANLINFPENNTFVINIEQLTQDDTGSYKCGLGTSNRGLSFDVSLEVSQVPELPS
B7: CDC48A 1-190 (Arabidopsis thaliana, UniProt P54609); chain MSTPAESSDSKSKKDFSTAILERKKSPNRLVVDEAINDDNSVVSLHPATMEKLQLFRGDTILIKGKKRKDTVCIALADETCEEPKIRMNKVVRSNLRVRLGDVISVHQCPDVKYGKRVHILPVDDTVEGVTGNLFDAYLKPYFLEAYRPVRKGDLFLVRGGMRSVEFKVIETDPAEYCVVAPDTEIFCEG
B8: designed binder (Homo sapiens); chain MASAARLTMMWEEVTCPICLDPFVEPVSIECGHSFCQECISQVGKGGGSVCPVCRQRFLLKNLRPNRQLANMVNNLKEISQEAREGTQGERCAVHGERLHLFCEKDGKALCWVCAQSRKHRDHAMVPLEEAAQEYQEKLQVALGELRRKQELAEKLEVEIAIKRADWKKTVETQKSRIHAEFVQQKNFLVEEEQRQLQELEKDEREQLRILGEKEAKLAQQSQALQELISELDRRCHSSALELLQEVIIVLERSESWNLKDLDITSPELRSVCHVPGLKKMLRTCAGGGGSGGGGSGGGGSRLDAPSQIEVKDVTDTTALITWDGPYTYIYSFELTYGIKDVPGDRTTIYLRYYNYYYSIGNLKPDTEYEVSLISSRSVRGSRRSSNPAKITFKTGL
B9: ATG9 1-255 (Saccharomyces cerevisiae, UniProt Q12142); sequence looked up; chain MERDEYQLPNSHGKNTFLSRIFGLQSDEVNPSLNSQEMSNFPLPDIERGSSLLHSTNDSREDVDENDLRVPESDQGTSTEEEDEVDEEQVQAYAPQISDGLDGDHQLNSVTSKENVLETEKSNLERLVEGSTDDSVPKVGQLSSEEEEDNEFINNDGFDDDTPLFQKSKIHEFSSKKSNTIEDGKRPLFFRHILQNNRPQRDTQKLFTSSNAIHHDKDKSANNGPRNINGNQKHGTKYFGSATQPRFTGSPLNNT
B10: NHEJ1 1-224 (Homo sapiens, UniProt Q9H9Q4); sequence looked up; chain MEELEQGLLMQPWAWLQLAENSLLAKVFITKQGYALLVSDLQQVWHEQVDTSVVSQRAKELNKRLTAPPAAFLCHLDNLLRPLLKDAAHPSEATFSCDCVADALILRVRSELSGLPFYWNFHCMLASPSLVSQHLIRPLMGMSLALQCQVRELATLLHMKDLEIQDYQESGATLIRDRLKTEPFEENSFLEQFMIEKLPEACSIGDGKPFVMNLQDLYMAVTTQ
B11: GP1BA ligand-binding domain 17-306 (Homo sapiens, UniProt P07359); RED-NHS dye label; sequence looked up; chain HPICEVSKVASHLEVNCDKRNLTALPPDLPKDTTILHLSENLLYTFSLATLMPYTRLTQLNLDRCELTKLQVDGTLPVLGTLDLSHNQLQSLPLLGQTLPALTVLDVSFNRLTSLPLGALRGLGELQELYLKGNELKTLPPGLLTPTPKLEKLSLANNNLTELPAGLLNGLENLDTLLLQENSLYTIPKGFFGSHLLPFAFLHGNPWLCNCEILYFRRWLQDNAENVYVWKQGVDVKAMTSNVASVQCDNSDKFPVYKYPGKGCPTLGDEGDTDLYDYYPEEDTEGDKVR
Sequence of UniProt P20936 (whole entry, unmodified, looked up): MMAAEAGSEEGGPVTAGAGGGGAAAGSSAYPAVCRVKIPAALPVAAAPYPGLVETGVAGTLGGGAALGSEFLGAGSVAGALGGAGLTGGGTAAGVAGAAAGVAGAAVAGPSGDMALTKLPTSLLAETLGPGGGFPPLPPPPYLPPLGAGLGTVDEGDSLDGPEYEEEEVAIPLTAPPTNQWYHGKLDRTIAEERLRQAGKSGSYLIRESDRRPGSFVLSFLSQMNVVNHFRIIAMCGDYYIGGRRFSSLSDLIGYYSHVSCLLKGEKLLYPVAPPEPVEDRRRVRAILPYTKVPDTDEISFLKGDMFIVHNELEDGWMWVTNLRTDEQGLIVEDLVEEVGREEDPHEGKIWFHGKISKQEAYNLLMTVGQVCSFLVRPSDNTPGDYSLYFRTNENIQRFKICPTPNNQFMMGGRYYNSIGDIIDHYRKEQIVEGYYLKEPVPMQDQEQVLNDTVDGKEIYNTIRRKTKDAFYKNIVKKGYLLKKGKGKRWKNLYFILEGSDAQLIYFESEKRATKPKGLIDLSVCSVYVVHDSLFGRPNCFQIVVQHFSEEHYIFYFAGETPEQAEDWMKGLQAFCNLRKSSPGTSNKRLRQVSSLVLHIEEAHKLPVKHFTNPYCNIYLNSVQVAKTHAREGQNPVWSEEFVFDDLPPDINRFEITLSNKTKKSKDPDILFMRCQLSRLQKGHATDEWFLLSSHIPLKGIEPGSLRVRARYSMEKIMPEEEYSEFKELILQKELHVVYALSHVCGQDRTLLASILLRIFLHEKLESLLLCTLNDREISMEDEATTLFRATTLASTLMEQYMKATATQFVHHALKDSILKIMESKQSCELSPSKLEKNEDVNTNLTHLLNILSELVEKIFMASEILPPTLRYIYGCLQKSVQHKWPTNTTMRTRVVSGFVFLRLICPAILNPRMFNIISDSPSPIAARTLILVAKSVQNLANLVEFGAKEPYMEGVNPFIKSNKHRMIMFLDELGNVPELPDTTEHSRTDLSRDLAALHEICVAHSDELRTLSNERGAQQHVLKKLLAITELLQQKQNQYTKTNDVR
Sequence of UniProt Q64663 (whole entry, unmodified, looked up): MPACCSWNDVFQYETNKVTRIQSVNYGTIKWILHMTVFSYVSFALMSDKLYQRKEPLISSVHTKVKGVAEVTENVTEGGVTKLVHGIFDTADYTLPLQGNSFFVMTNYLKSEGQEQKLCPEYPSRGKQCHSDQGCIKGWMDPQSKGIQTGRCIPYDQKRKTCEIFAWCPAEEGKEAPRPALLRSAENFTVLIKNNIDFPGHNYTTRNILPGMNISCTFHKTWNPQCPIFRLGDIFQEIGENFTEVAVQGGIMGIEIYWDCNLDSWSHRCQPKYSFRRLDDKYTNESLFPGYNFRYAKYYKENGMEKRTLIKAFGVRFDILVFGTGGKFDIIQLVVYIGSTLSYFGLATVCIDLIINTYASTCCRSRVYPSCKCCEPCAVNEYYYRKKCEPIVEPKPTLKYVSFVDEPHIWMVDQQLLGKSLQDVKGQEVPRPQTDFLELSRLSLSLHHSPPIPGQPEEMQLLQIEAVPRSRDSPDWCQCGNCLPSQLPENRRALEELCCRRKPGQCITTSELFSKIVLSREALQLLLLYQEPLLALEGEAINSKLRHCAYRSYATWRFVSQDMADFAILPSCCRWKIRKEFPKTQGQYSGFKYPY
Sequence of UniProt Q00610 (whole entry, looked up): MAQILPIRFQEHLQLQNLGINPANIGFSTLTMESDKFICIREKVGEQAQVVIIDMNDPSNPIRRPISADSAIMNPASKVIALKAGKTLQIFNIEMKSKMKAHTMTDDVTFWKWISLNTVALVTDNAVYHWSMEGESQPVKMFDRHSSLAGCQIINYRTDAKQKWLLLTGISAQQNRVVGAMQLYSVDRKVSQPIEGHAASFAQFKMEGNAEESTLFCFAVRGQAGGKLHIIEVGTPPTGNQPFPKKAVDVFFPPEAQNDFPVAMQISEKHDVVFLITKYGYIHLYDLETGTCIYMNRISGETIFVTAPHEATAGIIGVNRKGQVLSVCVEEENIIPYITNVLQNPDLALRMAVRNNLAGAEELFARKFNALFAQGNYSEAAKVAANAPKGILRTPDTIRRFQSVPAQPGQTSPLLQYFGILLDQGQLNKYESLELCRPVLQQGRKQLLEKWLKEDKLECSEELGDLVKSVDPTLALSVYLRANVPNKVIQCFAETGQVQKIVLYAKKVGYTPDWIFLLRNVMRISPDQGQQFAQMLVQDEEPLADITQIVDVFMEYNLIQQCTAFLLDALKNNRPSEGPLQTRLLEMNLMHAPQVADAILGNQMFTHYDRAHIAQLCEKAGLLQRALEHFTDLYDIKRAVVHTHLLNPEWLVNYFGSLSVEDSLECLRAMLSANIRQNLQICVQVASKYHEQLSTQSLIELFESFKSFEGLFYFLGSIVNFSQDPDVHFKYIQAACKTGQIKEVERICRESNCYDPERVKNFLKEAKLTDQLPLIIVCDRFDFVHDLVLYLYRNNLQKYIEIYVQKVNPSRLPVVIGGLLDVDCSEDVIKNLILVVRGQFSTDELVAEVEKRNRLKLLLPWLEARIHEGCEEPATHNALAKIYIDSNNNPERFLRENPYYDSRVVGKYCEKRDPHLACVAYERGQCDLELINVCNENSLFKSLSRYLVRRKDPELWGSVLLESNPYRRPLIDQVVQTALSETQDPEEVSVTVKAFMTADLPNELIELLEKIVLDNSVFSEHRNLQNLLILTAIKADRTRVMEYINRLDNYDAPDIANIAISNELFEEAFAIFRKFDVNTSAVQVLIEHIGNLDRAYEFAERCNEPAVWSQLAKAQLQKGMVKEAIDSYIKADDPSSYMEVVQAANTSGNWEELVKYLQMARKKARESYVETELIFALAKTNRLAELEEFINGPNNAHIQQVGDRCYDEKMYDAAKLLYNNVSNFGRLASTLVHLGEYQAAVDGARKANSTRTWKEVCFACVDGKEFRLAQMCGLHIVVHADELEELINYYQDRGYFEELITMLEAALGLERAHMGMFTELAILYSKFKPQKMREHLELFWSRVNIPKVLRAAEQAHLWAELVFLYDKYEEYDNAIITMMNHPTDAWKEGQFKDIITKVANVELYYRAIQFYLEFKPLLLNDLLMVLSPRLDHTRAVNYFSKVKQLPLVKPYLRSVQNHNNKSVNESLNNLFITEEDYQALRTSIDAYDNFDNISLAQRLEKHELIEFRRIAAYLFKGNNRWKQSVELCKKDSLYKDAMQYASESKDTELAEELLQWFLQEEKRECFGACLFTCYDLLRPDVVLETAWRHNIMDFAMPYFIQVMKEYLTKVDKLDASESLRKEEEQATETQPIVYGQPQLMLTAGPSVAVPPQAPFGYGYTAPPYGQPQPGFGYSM
Sequence of UniProt Q5BJF2 (whole entry, looked up): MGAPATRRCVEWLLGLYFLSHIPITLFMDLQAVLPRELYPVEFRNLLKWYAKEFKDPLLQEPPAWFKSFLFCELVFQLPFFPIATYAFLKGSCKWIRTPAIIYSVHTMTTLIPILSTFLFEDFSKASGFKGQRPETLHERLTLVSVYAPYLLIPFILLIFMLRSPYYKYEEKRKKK
Sequence of UniProt Q94JZ8 (whole entry, looked up): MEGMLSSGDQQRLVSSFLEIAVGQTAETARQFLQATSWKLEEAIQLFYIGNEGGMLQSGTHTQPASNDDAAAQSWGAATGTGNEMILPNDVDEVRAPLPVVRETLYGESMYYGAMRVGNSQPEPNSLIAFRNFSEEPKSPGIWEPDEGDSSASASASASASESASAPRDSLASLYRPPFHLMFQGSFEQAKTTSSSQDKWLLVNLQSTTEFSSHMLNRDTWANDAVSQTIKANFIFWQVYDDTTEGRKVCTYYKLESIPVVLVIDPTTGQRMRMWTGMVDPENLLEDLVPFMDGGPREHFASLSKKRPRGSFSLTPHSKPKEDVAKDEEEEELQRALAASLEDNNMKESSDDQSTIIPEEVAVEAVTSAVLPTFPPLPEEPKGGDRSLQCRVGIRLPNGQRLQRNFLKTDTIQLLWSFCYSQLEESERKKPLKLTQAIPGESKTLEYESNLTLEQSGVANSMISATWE
Sequence of UniProt Q8IXW5 (whole entry, looked up): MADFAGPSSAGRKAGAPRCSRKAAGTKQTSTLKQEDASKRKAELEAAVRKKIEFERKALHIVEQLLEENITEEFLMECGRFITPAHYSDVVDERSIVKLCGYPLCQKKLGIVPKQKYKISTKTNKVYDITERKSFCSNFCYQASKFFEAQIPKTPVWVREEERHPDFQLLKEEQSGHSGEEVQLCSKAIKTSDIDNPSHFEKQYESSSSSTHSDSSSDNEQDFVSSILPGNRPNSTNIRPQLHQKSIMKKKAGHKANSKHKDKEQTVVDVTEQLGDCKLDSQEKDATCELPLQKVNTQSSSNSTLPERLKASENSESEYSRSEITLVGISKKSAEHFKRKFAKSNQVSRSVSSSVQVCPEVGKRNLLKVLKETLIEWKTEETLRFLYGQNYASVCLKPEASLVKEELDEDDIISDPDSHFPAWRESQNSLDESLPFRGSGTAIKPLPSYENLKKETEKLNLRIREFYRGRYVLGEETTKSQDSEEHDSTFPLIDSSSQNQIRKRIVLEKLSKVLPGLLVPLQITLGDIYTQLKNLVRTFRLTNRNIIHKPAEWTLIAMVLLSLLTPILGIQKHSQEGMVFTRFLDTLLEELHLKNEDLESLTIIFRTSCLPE
Sequence of UniProt O75530 (whole entry, looked up): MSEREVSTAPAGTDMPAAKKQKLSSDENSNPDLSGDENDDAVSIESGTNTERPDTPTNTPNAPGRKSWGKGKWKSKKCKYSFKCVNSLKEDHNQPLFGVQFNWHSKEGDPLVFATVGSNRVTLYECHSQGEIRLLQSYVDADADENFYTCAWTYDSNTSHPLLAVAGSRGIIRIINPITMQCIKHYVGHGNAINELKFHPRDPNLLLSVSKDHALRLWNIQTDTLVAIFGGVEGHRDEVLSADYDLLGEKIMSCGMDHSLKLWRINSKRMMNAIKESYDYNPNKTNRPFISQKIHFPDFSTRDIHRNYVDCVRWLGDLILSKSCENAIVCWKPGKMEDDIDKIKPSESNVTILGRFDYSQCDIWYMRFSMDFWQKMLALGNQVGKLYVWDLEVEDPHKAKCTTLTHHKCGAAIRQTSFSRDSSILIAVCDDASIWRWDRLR

FNA / CGLSGLGVA-NH2 ([18F]FNA-labelled, C-amide)  tissue uptake (ex vivo gamma counting; peptide, healthy mouse, brain; 60 min post injection): 0.18 %ID/g
B1 (FIBH residues 1259-1853)  Kd (collagen I (Homo sapiens, UniProt P02452); FCS): 0.0109 ± 0.00016 µM
FGB (Homo sapiens, UniProt P02675)  cross-linked residues (AFG3L2 (Homo sapiens, UniProt Q9Y4W6); cross-linking MS; added: DSSO): K52 to K558
Histone H4 fragment (Homo sapiens)  Kd (YEATS4 19-159 (Homo sapiens, UniProt O95619); ITC; added: histone H3 peptide): > 1000 µM
DPSDYAEPMDAVVKPRNEEENIYSVPHDS (ARHGAP35 residues 1083-1111; pY1087/pY1105, N-acetyl, C-amide)  Kd (RASA1 174-444 C236S/C261S/C372S/C402S (Homo sapiens, UniProt P20936); ITC; peptide): 0.00359 µM and 0.00649 µM and 0.00504 µM
caspofungin  bilirubin (adult ICU patients, mITT, serum; dose not given, Follow-up): 11.8 µmol/L
KLLMIIHDRREFAKFEKEKMNAKWDTQENPIYKSPINNFKNPNYGRKAGL (ITGB1 752-801 (Homo sapiens, UniProt P05556-5); sequence looked up)  Kd (Tln2 312-408 Y376A (Mus musculus, UniProt Q71LX4); NMR titration): 698 µM
B2 (NRP1)  Kd (CYCS, heme (Arabidopsis thaliana); SPR): 12.1 µM
B3 (RPRD1B 2-135)  Kd (RPAP2 (Homo sapiens, UniProt Q8IXW5); ITC; 25 °C): > 1000 µM
11-deoxycorticosterone  rate constant k3 (CYP11B2 (human); substrate binding, stopped-flow kinetic modelling; 4-state branched induced-fit model, added: equimolar adrenodoxin): 0.0832 min⁻¹
Cacna1c fragment F1748E (Rattus norvegicus)  Kd (CACNA1C IQ motif 1644-1668, fluorescein label (UniProt P15381); fluorescence polarisation): 8 ± 3 µM
Notch ankyrin domain D117A/R107A (Drosophila)  Kd (dx (Drosophila melanogaster, UniProt Q23985); AUC): 5.71 µM
HTN1 fragment alanine substitutions at 9-11  Kd (TMEM97 (Homo sapiens, UniProt Q5BJF2); SPR): 4.7 µM
B4 (VHH nanobody 6B1)  Kd (FXN 90-210 H177C (Homo sapiens, UniProt Q16595); BLI; VHH): 0.006 µM
B5 (YWHAH)  Kd (NEDD4L full length isoform 5, pS342/pS428 (Homo sapiens, UniProt Q96PU5-5); AUC; with Ca2+): 0.008 µM
PCSK9 (Homo sapiens, UniProt Q8NBP7)  Kd (alirocumab IgG, PBS-stressed 14 d, Asn deamidation, heavy chain CDR1 Asn30 and Fc; SPR): 0.00062 µM
PRTARHAPAVRKFSPDLKLLKDVKISVSFTE (DGCR8(96-126), SUMO-tagged)  ΔH (Enhancer of rudimentary homolog (Homo sapiens, UniProt P84090); DGCR8 peptide binding, ITC; peptide; 293 K): -18.6 ± 0.79 kJ/mol
FGA (Homo sapiens, UniProt P02671)  cross-linked residues (CABIN1 (Homo sapiens, UniProt Q9Y6J0); cross-linking MS; added: DSSO): K467 to K391
colistin  MIC (Serratia fonticola; clinical isolate RKI 517/16): > 64 mg/L
Homer EVH1 domain (Capsaspora owczarzaki)  Kd (DVL3 peptide (Homo sapiens); BLI): > 150 µM
B6 (Pigr 19-135)  Kd (Igha/Jchain CH2-CH3 with J chain del136-137 (Mus musculus); SPR): 1.43 µM
B7 (CDC48A 1-190)  Kd (PUX7 171-468 (Arabidopsis thaliana, UniProt Q94JZ8); BLI; 25 °C): 0.0091 ± 0.0002 µM
KGTILKASVDYIRRM (TFEB residues 274-288)  Kd (TRIP12 (Homo sapiens, UniProt Q14669); MST; peptide, 293T, lysate; GFP-tagged): 0.0383 µM
B8 (designed binder)  Kd (EED (Homo sapiens, UniProt O75530); BLI; designed binder): > 3.8 µM
FKESALAKQSLYLAFDPLLRDS (TACC3 549-570 R555A/K562A (Homo sapiens, UniProt Q9Y6A5); FAM label, pS558; sequence looked up)  Kd (CLTC 358-574 (Homo sapiens, UniProt Q00610); fluorescence polarisation; peptide): 26 µM
B9 (ATG9 1-255)  Kd (Atg23 full-length, dimer (yeast, UniProt Q06671); ITC; pH 8, 20 °C, NaCl 150 mM): 5.6 µM
Cacng2 fragment (Mus musculus) (sequence not shown)  Kd (DLG4 PDZ1, pS142 (Homo sapiens); ITC): 35 µM
BzATP  normalized current (P2X purinoceptor 7 (P2rx7, Rattus norvegicus, UniProt Q64663, I214A/Q143A/R125A); ion current, agonist, two-electrode voltage clamp; Xenopus oocytes; 100 µM): 0.327 and 0.349 and 0.208
PARRSEELVAEAHNLCTLLENAIQDTVREQDQSFTALDWSWLQTE (IKBKB 701-745 K703R/K704R (UniProt O14920); N-terminal FITC; sequence looked up)  Kd (IKBKG 44-113 E110V/R106E/E78R/R75V/L55R/T50E; fluorescence polarisation; peptide): 0.532 µM
B10 (NHEJ1 1-224)  Kd (XRCC4 (Homo sapiens, UniProt Q13426); BLI): 0.17 µM
B11  Kd (VWF fragment C1669A/C1670A (Homo sapiens); MST): 0.122 µM

Excerpt of the above:
PRTARHAPAVRKFSPDLKLLKDVKISVSFTE (DGCR8(96-126), SUMO-tagged)  ΔH (Enhancer of rudimentary homolog (Homo sapiens, UniProt P84090); DGCR8 peptide binding, ITC; peptide; 293 K): -18.6 ± 0.79 kJ/mol
FGA (Homo sapiens, UniProt P02671)  cross-linked residues (CABIN1 (Homo sapiens, UniProt Q9Y6J0); cross-linking MS; added: DSSO): K467 to K391
